Experimental data collected from several papers.
Lines come from different studies, so protocols differ.

With `Cn1ncc(-c2nc(N[C@H]3CC[C@H](N)CC3)ncc2Cl)c1CC1CC1` the Cmax was 130 ng/mL (HPLC-MS/MS; patients, plasma; oral, 21 mg, day 5).
With `CC(=O)c1c(C)c2cnc(Nc3ccc(C4CCN(CCS(C)(=O)=O)CC4)cn3)nc2n(C2CCCC2)c1=O` the Cmax was 324 ng/mL (human, dose-escalation trial, plasma; oral, 150 mg twice daily, day 1, single dose).
For `O[C@H]1CCCN[C@@H]1CCCn1cnc2c(Cl)c(Cl)ccc21`, the Cmax was 239 ng/mL (healthy CYP2D6 EM and UM, plasma; oral, 150 mg single dose).
For `C[C@]1(CO)Cc2ncn(-c3ccc(C#N)c(Cl)c3)c2C(=O)O1`, the Cmax was 1070 nM (healthy Japanese adults, plasma; 20 mg single dose).
For `CN1CCN(S(=O)(=O)c2cc([N+](=O)[O-])ccc2N(CCOS(C)(=O)=O)CCOS(C)(=O)=O)CC1`, the Cmax was 1550 nM (naive female NSG mice, plasma; intraperitoneal, 5 mg/kg).
`CC[C@H](C)CCCCC(=O)N[C@@H](CCN)C(=O)N[C@H](C(=O)N[C@@H](CCN)C(=O)N[C@H]1CCNC(=O)[C@H]([C@@H](C)O)NC(=O)[C@H](CCN)NC(=O)[C@H](CCN)NC(=O)[C@H](CC(C)C)NC(=O)[C@@H](Cc2ccccc2)NC(=O)[C@H](CCN)NC1=O)[C@@H](C)O` gave a Cmax of 10500 ng/mL (critically ill patients, plasma; intravenous, dose not given, steady state, High AUC group, median).
The Cmax of `CC(C)[C@H](O)C(=O)N[C@H]1Cc2ccc3c(c2)[C@]2(C4=C(c5nc(CO)co5)N=C(O4)[C@H](C(C)(C)C)NC1=O)c1cc(F)ccc1N[C@@H]2O3` is reported as 1580 ng/mL (NSG mice, plasma; intravenous, 10 mg/kg, single dose at MTD, added: paclitaxel 40 mg/kg).
`Cc1onc(-c2ccccc2)c1C(=O)N[C@@H]1C(=O)N2[C@@H]1SC(C)(C)[C@@H]2C(=O)O` gave a Cmax of roughly 27000 ng/mL (rabbit, serum; intramuscular, 100 mg/kg).
For `CCCCCOc1ccc(-c2ccc(-c3ccc(C(=O)N[C@H]4C[C@@H](O)[C@@H](OCC[N+](C)(C)C)NC(=O)[C@@H]5[C@@H](O)[C@@H](C)CN5C(=O)[C@H]([C@@H](C)O)NC(=O)[C@H]([C@H](O)[C@@H](O)c5ccc(O)cc5)NC(=O)[C@@H]5C[C@@H](O)CN5C(=O)[C@H]([C@@H](C)O)NC4=O)cc3)cc2)cc1`, the Cmax was 17200 ng/mL (adult patients in ICU, plasma; intravenous, 400 mg loading, after first dose, geometric mean).

Repeated from above:
For `O[C@H]1CCCN[C@@H]1CCCn1cnc2c(Cl)c(Cl)ccc21`, the Cmax was 239 ng/mL (healthy CYP2D6 EM and UM, plasma; oral, 150 mg single dose).
